Measured values of several laboratories.
Every numbered part comes from another study and shows a few of its results, in no order. Changes are numbered by the printed parent chain.

Series 1
Target: CCNE1, cyclin fold, Cln2 fusion (human)
Method: yeast growth competition, sequencing
Medium: yeast
Notes: weak parent motif
Relative to: not given
Reading: higher = stronger binding
Starting sequence: CDC6 docking peptide (human); TLKGRRLVFDNQL
Variant	normalised enrichment score
Q12F	0.0946
R5P	-0.0982
L7C	-0.251
K3D	0.37
K3R	0.638
N11S	0.319
T1H	0.547

Series 2
Target: RING finger protein unkempt homolog, zinc fingers 1-6, GST-SBP tag (UNK, Homo sapiens, UniProt Q9C0B0, residues 30-357)
Method: RNA Bind-n-Seq
Molecule type: RNA
Medium: in vitro
Concentration: not given
Notes: RNA with constant flanks, human and mouse sites, ends assumed
Relative to: input RNA pool
Reading: higher = stronger binding
All sequences stand within: GGGAGUUCUACAGUCCGACGAUC … CAACAGAGGAUUGAGCAUCA
Construct (chain): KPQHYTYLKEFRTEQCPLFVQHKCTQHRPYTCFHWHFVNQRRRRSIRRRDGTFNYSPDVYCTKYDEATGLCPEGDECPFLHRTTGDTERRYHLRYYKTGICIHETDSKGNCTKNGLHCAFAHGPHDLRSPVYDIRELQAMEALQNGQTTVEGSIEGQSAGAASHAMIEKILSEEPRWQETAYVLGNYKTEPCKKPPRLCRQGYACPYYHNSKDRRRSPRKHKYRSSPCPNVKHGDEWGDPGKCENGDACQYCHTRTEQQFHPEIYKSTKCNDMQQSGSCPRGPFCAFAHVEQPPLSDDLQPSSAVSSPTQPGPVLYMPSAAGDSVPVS
Strand	bound/input enrichment
AAAGAAGAGGCCAAAACUUCAAAUCCAACUUCUUCACUAACUUCUCUUUCUGUGGCACCAACAUUCAGCCCAAAUAUAACUCUGGGACCCACCUAUUUAACCACUGUCAAUUCUUCAGAC	0.28 ratio
CUGCUGAUCAGAAGCCAGAAUGUCGGCCAUACUGGGAAAAGGAUGAUGCUUCGAUGCCUCUGCCGUUUGACCUCACAGACAUCGUUUCAGAACUCAGAGGUCAGCUUCUGGAAGCAAAAC	0.254 ratio
ACUCUUGACUCUUUCCAUUCUCGUCCCUUUCCUCUUGAUCUUCAAGGCCAUGAAUCCCAAAAUAGCUAUCUAUCUUAGAGGCUAGCACCCAAACUGAGGUGCCAUCCAAACUGACAAGGC	0.923 ratio
GGAAGCCGAUCAGGAGAACAAGCUCUGGUGUCCAUUAGUUCAAGAAAUCCUGUGUUGAAGCAUAAUGUUGCUACAUAAGCCAGAGAAAGGAAGAGCGCUGCCAGGCCUGAUCGUUGGUAG	0.6 ratio
GGCCAGCUCAAUGCUGACCUCCGCAAGUUGGCAGUCAACAUGGUCCCCUUCCCACGUCUCCAUUUCUUUAUGCCUGGCUUUGCCCCUCUCACCAGCCGUGGAAGCCAGCAGUAUCGAGCU	0.324 ratio
GCUGCUGCUGCUGCUGCAACAGCUGCCUGGACAGGGACCACCUUUACUAAAAAAGCACCAUUCCAAAAUAAACAACUGAAACCAAAACAGCCUCCCAAACCACCACAGAUUCACUAUUGU	0.478 ratio
CAGUAACCCUGCAAGAUAUAAAGGAAGAGAAAAUAUGUUGUAUUAUGAUACUAUUGAAGAUGCCCUUGGUGGGGUACAAGAGGCUCAUUUUGAUGGACUUAUCUUUGUUCAUUCUGGAAU	0.269 ratio
GUCGCUCUGUAUGCGAUCAGUGCUGUCUACUUUGCCGGAGUGAUGGUGCGGCUGAUGCUGACUCUGACCCCGGUCGUCUGCAUGCUGUCGGCCAUCGCCUUCUCCAAUGUUUUUGAGCAC	0.0808 ratio
CAGGUAGGUGUUUCUCUGUUAUGUAAGCAAUAACUUUUUCUGUGUCUUAUGGAGUAUGACUAGCAAUUAUUUAUUUCCAUGCUAGACGGUUCUUUGCAUGUGGGUUCCUUAUAGGUGCAG	0.825 ratio
CACCUUUGGCUCCAAAGGGAUACUCCUAUCACACACAUCAGUUUUCAUCCCAAGAGACCGAUGCACAUCCUUCUCCAUGAUGCCUACAUGUUCUGCAUCAUUGACAAGUCAUUGCCCCUU	0.231 ratio
UGGGCAUCCUCUCUGGGGAGCUGCUGGCCGCUUAGCGUUGUUUGAUUUUUGACCUUGACAUAGUAGAUAGGCUUGUGGUUUUUUUAAUUUAAAGAUAUUAAGACUUAAUUCACUAAAAUU	16.1 ratio

Series 3
Target: ABI1, truncated, D143A, DHFR fusion (Arabidopsis thaliana)
Method: DHFR PCA, deep sequencing
Medium: yeast
Notes: methotrexate growth selection, single substitutions
Together with: (+)-ABA 0.0091 µM
Relative to: wild-type fitted maximum
Reading: higher = stronger binding
Starting sequence: PYL1, truncated, DHFR fusion (Arabidopsis thaliana); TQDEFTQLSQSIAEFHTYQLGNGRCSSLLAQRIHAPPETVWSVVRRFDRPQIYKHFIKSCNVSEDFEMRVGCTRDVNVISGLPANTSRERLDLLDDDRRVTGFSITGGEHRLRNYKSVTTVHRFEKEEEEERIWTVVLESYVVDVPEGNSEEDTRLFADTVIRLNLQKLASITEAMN; partner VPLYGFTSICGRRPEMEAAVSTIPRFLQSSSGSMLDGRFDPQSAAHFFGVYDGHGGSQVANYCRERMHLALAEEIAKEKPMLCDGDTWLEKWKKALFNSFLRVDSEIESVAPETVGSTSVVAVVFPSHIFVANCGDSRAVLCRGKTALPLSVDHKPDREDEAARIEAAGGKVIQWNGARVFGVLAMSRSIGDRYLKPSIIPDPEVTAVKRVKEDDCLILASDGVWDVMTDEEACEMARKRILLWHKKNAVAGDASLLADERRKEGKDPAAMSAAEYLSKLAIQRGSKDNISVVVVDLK
Variant	relative binding score
D97I	11.4%
F47S	17.1%
W134T	37.8%
C25P	3.35%
D159P	-6.91%
C25G	-1.83%
I162G	0.477%
G81K	1.27%
V43N	0.817%
V40A	0.923%
S59T	10.4%

Single results of other studies
Molecule	target	assay	system	conditions	how to read	measurement	value
PhoQ, residues 284 288 289 292 302 303 ALAMYF	PhoP, residues 12 14 15 18 19 TQCLL (Escherichia coli, UniProt P23836)	Sort-seq, item: YFP reporter	E. coli	PhoQ-PhoP variant library, together with: 10 µM Mg2+	relative to: high Mg2+ state, higher = stronger signaling	fold induction	2.44

Excerpt of the above (series 3):
Variant	relative binding score
C25G	-1.83%
C25P	3.35%
I162G	0.477%
D97I	11.4%
